Experimental data collected from several papers.
A part holds a random share of what one study measured.

Sample 1
Target: PABPC1L2, full length, GST fusion (mouse, UniProt A0ABA7IW68)
Method: RNAcompete
Form: RNA
Sample: in vitro
Concentration: 20 nM
Notes: 7-mer, probes averaged, single round
Baseline: mean of 7-mers
Direction: higher = stronger binding
Construct (chain): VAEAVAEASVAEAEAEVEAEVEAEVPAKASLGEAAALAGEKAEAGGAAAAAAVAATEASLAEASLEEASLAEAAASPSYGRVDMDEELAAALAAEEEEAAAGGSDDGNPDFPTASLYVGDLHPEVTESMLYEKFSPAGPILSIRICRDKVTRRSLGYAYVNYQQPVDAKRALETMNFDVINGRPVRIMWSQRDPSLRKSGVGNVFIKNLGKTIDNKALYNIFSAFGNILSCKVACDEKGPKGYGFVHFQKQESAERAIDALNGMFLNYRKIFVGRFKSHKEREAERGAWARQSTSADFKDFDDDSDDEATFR
Strand	7-mer Z-score
GAAAAAC	10.5
AUGGCUU	-0.0645
UCACAAU	-0.139
GUAUCCU	-0.356
GUAGCGC	-0.161
AACGUAG	0.0478
GAACGUG	-0.0446
AUUUGCG	-0.391
UAACGUA	-0.108
ACGCGUU	-0.222
CAACCGC	-0.106
GACCCUG	-0.258
UGUAUUG	-0.222
UGCACAC	-0.177
AAGAUCA	0.316
GGUGUAG	0.18
AUCAGGU	-0.104
GGGACGC	0.209

Sample 2
Target: Histone acetyltransferase KAT6A, winged helix 2, GST fusion (KAT6A, Homo sapiens, UniProt Q92794, residues 85-181)
Method: protein binding microarray
Form: double-stranded DNA, one strand shown
Sample: in vitro
Concentration: not given
Notes: 8-mer, flanks averaged, mean of 2 arrays, mostly near background
Baseline: not given
Direction: higher = stronger binding
Target sequence (chain): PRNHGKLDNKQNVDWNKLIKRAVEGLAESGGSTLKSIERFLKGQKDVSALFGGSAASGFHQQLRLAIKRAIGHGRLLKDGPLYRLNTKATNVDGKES
Strand	E-score
CATGAATC	-0.037
GTCGTATA	0.0596
GACACGTC	-0.155
CGCCGCCG	0.333
GGTCTTAC	-0.0589
GAATAACA	0.132
CAAGCTGA	0.175
AAAACATA	-0.0414
ACTTCACG	-0.0894
AAGAGGTG	-0.13
CGAGCCAA	0.00662
TGGGCTAA	-0.0275
ACCACGCG	-0.0585
GGGGCCCC	0.114
GCCACTAC	-0.0564
TCCTTGCA	0.00242
ATGAACAC	-0.0354
GGCTCTCA	0.0461
ACTCCTGC	0.00509

Sample 3
Target: Prothrombin, mature alpha-thrombin (F2, Homo sapiens, UniProt P00734)
Method: aptamer microarray, sandwich
Form: DNA with 2'F-ANA
Sample: in vitro
Concentration: 200 nM
Notes: whole 15-mer aptamer, many near background
Added: Cy3 exosite-II aptamer, 400 nM
Direction: higher = stronger binding
Strand: GGTTGGTGTGGTTGG
Modification	mean fluorescence intensity [a.u.]
2'F-ANA at 1 8 10 11 13 14	51
2'F-ANA at 2 4 5 7 8 12 13 15	99.7
2'F-ANA at 3 6 7 8 9 10 11 14 15	346
2'F-ANA at 1 3 6 7 12 14	132
2'F-ANA at 5 7 8 9 12 13 14 15	46.1
2'F-ANA at 1 3 4 5 11 14 15	47.4
2'F-ANA at 1 3 4 9 10 11 15	67.4
2'F-ANA at 1 2 5 6 7 8 12 14 15	55.4
2'F-ANA at 4 5 6 8 9 12 13 15	106
2'F-ANA at 1 3 4 7 8 10 14 15	53
2'F-ANA at 1 3 4 9 10 11 13 14	48.9
2'F-ANA at 2 6 7 8 10 13 14	85.6
2'F-ANA at 2 4 5 6 8 9 10 11 12 15	51.9
2'F-ANA at 2 3 4 5 8 10 11 14 15	48.7
2'F-ANA at 4 5 6 11 13 15	79.3
2'F-ANA at 4 5 7 8 10 12	72.5
2'F-ANA at 4 5 6 7 8 11 13 15	50.7
2'F-ANA at 1 4 6 8 11 15	105
2'F-ANA at 1 2 4 5 8 12 13 14	44.1
2'F-ANA at 2 3 4 7 8 9 10 11 12 13 14 15	161
2'F-ANA at 1 2 4 5 8 9 13 14 15	54.8
2'F-ANA at 1 2 4 5 8 9 10 11 14 15	52.9
2'F-ANA at 1 5 8 9 12 15	119
2'F-ANA at 5 6 9 11 13 14 15	52.5

Sample 4
Target: RNA binding protein fox-1 homolog 2, RRM domain, GST-SBP tag (RBFOX2, Homo sapiens, UniProt O43251-10, residues 100-194)
Method: RNA Bind-n-Seq
Form: RNA
Sample: in vitro
Concentration: 365 nM
Notes: natural RNA segment, single round, ends assumed
Baseline: no-protein control
Direction: higher = stronger binding
All sequences stand within: GGGAGUUCUACAGUCCGACGAUC … UGGAAUUCUCGGGUGCCAA
Target sequence (chain): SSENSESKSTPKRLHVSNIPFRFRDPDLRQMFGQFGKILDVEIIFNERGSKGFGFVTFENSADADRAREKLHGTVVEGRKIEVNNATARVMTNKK
Strand	RBNS enrichment (R)
CCACAUCAGUGUGCUGAGUACCUGACCUCCAGGAUCUCCUCCACUUUGUUCUCACACCCCACUGCCCAACAGAUUCCUUUGGAUGCUGUCUGGAACAGGAAAGAGGUAUA	0.306
AAAUGAAAACUAUAAAUUGCAAGUAUUCUGGAAUUGGGAAAUACUUAUUUUAAAUGAGAUCAGGUAGUGUUGCUUUUUACAGCAUAAUAAAUAUGUGUAUUGAAAACAAA	0.874
UUUUAAUUUAUUAUGCCAUGAAUUUAUAAACAUUUAAUAUAAAACAUUAUAACAUUUGCUGUUUUAAAAUUUUUGCUAUUUUUUCACAAACUGAUAUUCAAAAUAUUAAA	1.12
UCUGUUGAGAUUUUUCCCUCACCUUGCCUCUCAGGCACAAUAAAUAUAGUUAUACCACUGCCCAUCAGCCCAAGUCUCUUUAUUGGAACCGGGCCCCGCUGGCCCUGGCU	0.581
UACCCACCAAUGUCUCUGGGUUUUGUACCAGUCCCUGCUCUCAGGCCACCCUGCCCAGGACCCAGGCCCGCCUCCCCCUCCACACUCAGGAUGUCCUGCUCCAUCUGGCC	0.563
ACAGACUCUUAAACUAACAAUUCAAGCAGGCGCCAAGUGCUAUGACAGAGGUGUGAAUAAAAGCAUCAGGAAAUCGGAUGGAGAACCACCAUUCACCCAAGGGUCAGAGG	0.344
AAAAAUAGGUGGUAAGCUUUCCUUCUUUCCUUAUUUUGUGUGAUGCCUUAAACUGAAAAGUUAAAAAUUGAUGGAUUGUAGCAUUCCCAUAAUCUCCCCCUUCUUUUUUU	1.57
GGCGAGUGGGUAGACCCAAGGCUAGUGUCGCUGCUGUCAGUGGCUUUUUUUUUUUUUUUCAUCGAAGGCCUAAAAUGAUCGCGAUUCGAAAAAACAACGAGAAAAUGACG	0.763

Repeated from above (sample 2):
Strand	E-score
GACACGTC	-0.155
CGCCGCCG	0.333
GGTCTTAC	-0.0589
GAATAACA	0.132
CAAGCTGA	0.175
AAAACATA	-0.0414
ACTTCACG	-0.0894
AAGAGGTG	-0.13
CGAGCCAA	0.00662
TGGGCTAA	-0.0275
